Experimental data gathered from unrelated publications.
A part holds a random share of what one study measured.

Study 1
Target: Centromere-binding protein 1, full length, N-terminal tag (CBF1, Saccharomyces cerevisiae, UniProt P17106, residues 1-351)
Chain of UniProt P17106 (whole entry, looked up): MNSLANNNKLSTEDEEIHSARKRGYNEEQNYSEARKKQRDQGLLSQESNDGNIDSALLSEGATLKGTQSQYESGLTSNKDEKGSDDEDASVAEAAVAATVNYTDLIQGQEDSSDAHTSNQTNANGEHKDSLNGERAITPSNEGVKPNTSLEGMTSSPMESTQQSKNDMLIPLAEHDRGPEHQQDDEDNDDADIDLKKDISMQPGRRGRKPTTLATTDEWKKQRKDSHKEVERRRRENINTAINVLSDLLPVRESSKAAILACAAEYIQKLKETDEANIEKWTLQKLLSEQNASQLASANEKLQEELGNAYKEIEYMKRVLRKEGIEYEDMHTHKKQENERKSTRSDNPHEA
Technique: protein-binding microarray
Form: double-stranded DNA, one strand shown
Matrix: in vitro
Concentration: 0.8 µM
Notes: whole 60-bp probe, no competitor
Reading: higher = stronger binding
Endpoint: fluorescence intensity
Sequence = GAATTTCGTCCGTAGCACGTAAAAAAGAAAAATTAGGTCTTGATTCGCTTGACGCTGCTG; result = 507 a.u.
Sequence = CTAATAACACTTATCCACGCAACAGTAATGTGGTTCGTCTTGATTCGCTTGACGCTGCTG; result = 535 a.u.
Sequence = CTAGGAGAAAAGTCACGTGCAAAAAGAAATCATTTCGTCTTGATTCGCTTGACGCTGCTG; result = 16700 a.u.
Sequence = CTACTATCTGAACTGCACGTTTAAATTTTTACCTTCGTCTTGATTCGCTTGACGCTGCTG; result = 624 a.u.
Sequence = GAATCTTTACCTCGCCACGCGGAATAGTAAAACTAGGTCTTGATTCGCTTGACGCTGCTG; result = 532 a.u.
Sequence = CTAGCGCGCGGTGTGATGGTGATGATAATGATGTTCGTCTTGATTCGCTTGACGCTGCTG; result = 571 a.u.
Sequence = CTACGTACCGCTTCTCAGCTGTTCTTGCCGTCCTTCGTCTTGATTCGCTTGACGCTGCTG; result = 512 a.u.
Sequence = GAACCCTGAAAATGTGGTGTGGTTACTAAGCAGTAGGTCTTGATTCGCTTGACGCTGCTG; result = 528 a.u.
Sequence = GAATAAGTAGAATTTTACACCACGCATTTATAATAGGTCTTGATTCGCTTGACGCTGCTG; result = 610 a.u.

Study 2
Target: Prothrombin, mature alpha-thrombin (F2, Homo sapiens, UniProt P00734)
Technique: aptamer microarray, sandwich
Form: DNA with 2'F-ANA
Matrix: in vitro
Concentration: 200 nM
Notes: whole 15-mer aptamer, many near background
Added: Cy3 exosite-II aptamer, 400 nM
Reading: higher = stronger binding
Endpoint: mean fluorescence intensity
Sequence: GGTTGGTGTGGTTGG
Modification = 2'F-ANA at 1 7 8 9 10 12 14 15; result = 67.2 a.u.
Modification = 2'F-ANA at 1 2 3 4 5 6 10 11 12 13 14; result = 47 a.u.
Modification = 2'F-ANA at 2 6 9 10 14 15; result = 287 a.u.
Modification = 2'F-ANA at 2 6 9 12 13; result = 497 a.u.
Modification = 2'F-ANA at 2 3 4 7 9 11 12 13; result = 618 a.u.
Modification = 2'F-ANA at 3 6 7 10 12 14; result = 466 a.u.

Study 3
Target: Interferon regulatory factor 5, full length, phosphomimetic (IRF5, Homo sapiens, UniProt Q13568-2, residues 1-514, K96S/S451D/S453D/S456D/S462D)
Technique: protein-binding microarray
Form: double-stranded DNA, one strand shown
Matrix: in vitro
Concentration: 250 nM
Notes: 60-bp whole probe
Added: salmon DNA 0.4 mg/ml
Baseline: random background probes
Reading: higher = stronger binding
Endpoint: log fluorescence
Constant ends, left off below: GCCTAGCAC … GTCTTGATTCGCTTGACGCTGCTG
Sequence = GACGGTCTCGGTTTCGAGACGTGCTAG; result = 2.97 z-score
Sequence = TGTCCTTTCACTTTAACTTAGTGCTAG; result = 5.4 z-score
Sequence = TCACATTTTCATTTTGTACTGTGCTAG; result = 2.16 z-score
Sequence = GACGATTTCAGTTCTGAGACGTGCTAG; result = 1.14 z-score
Sequence = GACGGTATAGGTTTCGGGACGTGCTAG; result = 2.69 z-score
Sequence = GGAAGTCCCATGTTGCAGACTGTGCTA; result = -0.651 z-score

Single results of other studies
Molecule = PhoQ, residues 284 288 289 292 302 303 TVTVVA; target = PhoP, residues 12 14 15 18 19 NMSFL (Escherichia coli, UniProt P23836); test = Sort-seq, item: YFP reporter; test system = E. coli; conditions = PhoQ-PhoP variant library, added: 10 µM Mg2+; how to read = baseline: high Mg2+ state, higher = stronger signaling; endpoint = fold induction; result = 7.57

For quick reference, copied from above (study 1):
Sequence = GAATCTTTACCTCGCCACGCGGAATAGTAAAACTAGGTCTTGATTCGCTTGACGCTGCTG; result = 532 a.u.
Sequence = CTAGCGCGCGGTGTGATGGTGATGATAATGATGTTCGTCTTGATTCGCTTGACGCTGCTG; result = 571 a.u.
Sequence = CTACGTACCGCTTCTCAGCTGTTCTTGCCGTCCTTCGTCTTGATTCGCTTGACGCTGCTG; result = 512 a.u.
